Measurements from different studies.
Numbered parts are unrelated; each lists some results of a single study.
UniProt Q9NRM7, sequence (whole entry, looked up): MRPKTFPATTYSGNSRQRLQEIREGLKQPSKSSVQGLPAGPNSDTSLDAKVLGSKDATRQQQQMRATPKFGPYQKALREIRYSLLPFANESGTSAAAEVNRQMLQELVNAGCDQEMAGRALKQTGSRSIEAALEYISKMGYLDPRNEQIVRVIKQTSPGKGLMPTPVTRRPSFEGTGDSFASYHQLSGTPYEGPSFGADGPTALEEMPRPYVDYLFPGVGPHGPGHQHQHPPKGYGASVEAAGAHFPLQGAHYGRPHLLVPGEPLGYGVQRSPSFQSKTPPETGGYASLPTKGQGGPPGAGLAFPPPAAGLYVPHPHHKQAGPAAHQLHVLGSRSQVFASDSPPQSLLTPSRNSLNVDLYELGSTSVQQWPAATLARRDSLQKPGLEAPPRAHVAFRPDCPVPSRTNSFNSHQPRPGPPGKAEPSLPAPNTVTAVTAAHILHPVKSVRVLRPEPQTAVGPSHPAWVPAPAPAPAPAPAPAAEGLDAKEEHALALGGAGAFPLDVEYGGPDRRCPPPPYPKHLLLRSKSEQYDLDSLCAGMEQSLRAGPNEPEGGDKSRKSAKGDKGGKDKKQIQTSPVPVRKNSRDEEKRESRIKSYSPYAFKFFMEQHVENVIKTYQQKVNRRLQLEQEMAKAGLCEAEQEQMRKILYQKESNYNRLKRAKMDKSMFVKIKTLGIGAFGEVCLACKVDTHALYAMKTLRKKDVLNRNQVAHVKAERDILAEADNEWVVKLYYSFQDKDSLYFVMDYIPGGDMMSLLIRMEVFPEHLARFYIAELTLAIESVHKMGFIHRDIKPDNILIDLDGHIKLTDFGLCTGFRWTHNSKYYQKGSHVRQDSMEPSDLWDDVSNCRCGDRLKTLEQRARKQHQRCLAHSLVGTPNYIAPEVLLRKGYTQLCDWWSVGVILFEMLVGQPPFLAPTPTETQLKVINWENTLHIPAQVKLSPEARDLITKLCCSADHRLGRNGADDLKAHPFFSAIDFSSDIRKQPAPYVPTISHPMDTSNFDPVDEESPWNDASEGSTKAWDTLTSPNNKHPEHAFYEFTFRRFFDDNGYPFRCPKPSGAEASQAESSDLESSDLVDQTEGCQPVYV
UniProt Q99558, sequence (whole entry, looked up): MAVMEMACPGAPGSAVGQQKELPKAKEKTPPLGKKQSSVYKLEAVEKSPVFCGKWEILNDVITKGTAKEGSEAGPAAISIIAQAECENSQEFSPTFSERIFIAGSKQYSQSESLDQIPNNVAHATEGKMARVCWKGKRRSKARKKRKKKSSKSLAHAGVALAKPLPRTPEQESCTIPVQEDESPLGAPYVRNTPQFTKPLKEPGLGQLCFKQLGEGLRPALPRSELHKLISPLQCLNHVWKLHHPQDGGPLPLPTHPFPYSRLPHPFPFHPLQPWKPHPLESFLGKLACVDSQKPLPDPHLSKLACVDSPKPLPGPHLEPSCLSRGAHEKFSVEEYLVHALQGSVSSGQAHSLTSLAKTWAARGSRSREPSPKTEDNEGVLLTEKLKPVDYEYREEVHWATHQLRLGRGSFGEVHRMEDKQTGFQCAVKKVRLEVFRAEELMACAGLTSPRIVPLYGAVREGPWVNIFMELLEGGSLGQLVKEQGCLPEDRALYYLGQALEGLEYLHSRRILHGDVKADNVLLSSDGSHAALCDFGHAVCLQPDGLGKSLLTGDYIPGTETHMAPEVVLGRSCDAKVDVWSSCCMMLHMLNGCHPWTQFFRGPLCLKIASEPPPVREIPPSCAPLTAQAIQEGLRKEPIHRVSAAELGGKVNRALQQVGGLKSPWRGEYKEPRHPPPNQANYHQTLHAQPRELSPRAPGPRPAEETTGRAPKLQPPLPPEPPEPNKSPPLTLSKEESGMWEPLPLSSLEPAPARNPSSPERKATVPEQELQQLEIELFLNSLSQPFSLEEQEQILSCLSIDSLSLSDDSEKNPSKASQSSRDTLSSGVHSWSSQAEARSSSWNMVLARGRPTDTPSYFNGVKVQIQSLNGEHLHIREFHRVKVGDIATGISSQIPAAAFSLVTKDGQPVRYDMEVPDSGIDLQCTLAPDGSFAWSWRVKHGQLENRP
UniProt Q15208, sequence (whole entry, looked up): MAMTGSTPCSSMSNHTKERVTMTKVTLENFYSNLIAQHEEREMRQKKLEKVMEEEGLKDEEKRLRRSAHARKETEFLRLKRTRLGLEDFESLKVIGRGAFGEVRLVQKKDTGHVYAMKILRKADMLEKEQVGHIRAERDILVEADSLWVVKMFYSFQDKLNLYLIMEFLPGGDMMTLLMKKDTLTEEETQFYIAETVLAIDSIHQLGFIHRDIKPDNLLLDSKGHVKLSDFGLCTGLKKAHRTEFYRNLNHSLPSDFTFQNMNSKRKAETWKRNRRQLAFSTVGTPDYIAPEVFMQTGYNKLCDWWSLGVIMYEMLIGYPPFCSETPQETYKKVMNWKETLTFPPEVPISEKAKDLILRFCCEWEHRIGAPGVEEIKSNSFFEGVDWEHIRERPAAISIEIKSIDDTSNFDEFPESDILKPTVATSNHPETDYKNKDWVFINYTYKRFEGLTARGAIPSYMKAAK
UniProt P00519, sequence (whole entry, looked up): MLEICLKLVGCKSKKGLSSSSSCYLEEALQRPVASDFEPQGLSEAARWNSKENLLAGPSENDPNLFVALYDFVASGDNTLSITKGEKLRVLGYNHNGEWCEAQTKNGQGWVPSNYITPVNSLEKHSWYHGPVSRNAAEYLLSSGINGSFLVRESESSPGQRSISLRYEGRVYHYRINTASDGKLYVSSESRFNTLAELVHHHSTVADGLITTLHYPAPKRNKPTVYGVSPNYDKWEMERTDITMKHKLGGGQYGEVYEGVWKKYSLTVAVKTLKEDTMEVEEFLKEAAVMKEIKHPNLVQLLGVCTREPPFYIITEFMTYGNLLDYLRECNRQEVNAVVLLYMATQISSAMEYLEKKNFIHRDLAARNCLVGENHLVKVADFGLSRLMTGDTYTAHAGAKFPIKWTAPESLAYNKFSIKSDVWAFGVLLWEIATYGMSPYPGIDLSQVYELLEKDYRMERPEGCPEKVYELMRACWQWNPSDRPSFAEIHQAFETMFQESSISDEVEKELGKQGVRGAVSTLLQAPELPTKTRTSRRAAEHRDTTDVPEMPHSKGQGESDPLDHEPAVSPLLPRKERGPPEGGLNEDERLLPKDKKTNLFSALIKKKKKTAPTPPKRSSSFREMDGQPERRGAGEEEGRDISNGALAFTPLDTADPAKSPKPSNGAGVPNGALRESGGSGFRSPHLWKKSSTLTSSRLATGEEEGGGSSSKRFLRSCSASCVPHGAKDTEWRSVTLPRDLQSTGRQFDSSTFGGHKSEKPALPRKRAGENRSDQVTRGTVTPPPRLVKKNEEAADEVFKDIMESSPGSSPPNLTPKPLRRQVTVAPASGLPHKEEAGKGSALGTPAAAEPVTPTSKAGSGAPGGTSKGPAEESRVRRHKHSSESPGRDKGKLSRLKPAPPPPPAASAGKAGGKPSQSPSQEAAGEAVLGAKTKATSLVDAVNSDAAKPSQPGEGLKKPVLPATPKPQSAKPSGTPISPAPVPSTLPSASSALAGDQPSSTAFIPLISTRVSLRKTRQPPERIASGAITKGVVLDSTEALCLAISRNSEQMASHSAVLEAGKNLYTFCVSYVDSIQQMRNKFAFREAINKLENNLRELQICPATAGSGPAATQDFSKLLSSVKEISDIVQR
UniProt O14733, sequence (whole entry, looked up): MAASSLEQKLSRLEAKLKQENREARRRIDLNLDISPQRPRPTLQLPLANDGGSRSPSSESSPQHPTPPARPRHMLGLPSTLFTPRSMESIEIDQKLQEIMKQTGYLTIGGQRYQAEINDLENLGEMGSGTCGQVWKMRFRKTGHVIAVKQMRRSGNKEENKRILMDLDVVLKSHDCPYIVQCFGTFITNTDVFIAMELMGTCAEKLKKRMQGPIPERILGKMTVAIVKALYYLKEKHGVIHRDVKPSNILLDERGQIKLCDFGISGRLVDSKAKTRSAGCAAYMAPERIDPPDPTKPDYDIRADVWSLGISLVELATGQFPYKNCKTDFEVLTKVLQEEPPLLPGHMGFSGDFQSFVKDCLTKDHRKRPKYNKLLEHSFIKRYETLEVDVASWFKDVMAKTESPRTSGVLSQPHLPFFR

Series 1
Cell line: HaCaT
Concentration: 100 µM
Time: 36 h
SMILES	viability
NS(=O)(=O)c1cc(C2(O)NC(=O)c3ccccc32)ccc1Cl (stereo not shown)	61%
CSc1nc2cc(Cl)c(Oc3cccc(Cl)c3Cl)cc2[nH]1	12.5%
O=C(O)CCCN1CCC(O[C@@H](c2ccc(Cl)cc2)c2ccccn2)CC1	94.4%
CC(C)c1ccc2oc3nc(N)c(C(=O)O)cc3c(=O)c2c1	84.9%
COc1cc2ccc(=O)oc2cc1OC	35.2%

Series 2
SMILES: CC(C)(O)c1cncc(-c2nc3ccc(F)cc3n2C2CC2)c1
Read-out: cell-free assay
Technique: competition with immobilised ligand
Concentration: 1 µM
target	remaining binding [%]
MAP3K14 (Homo sapiens, UniProt Q99558)	100
PLK2 (Homo sapiens, UniProt Q9NYY3)	100
MAP2K7 (Homo sapiens, UniProt O14733)	100
Tyrosine-protein kinase ABL1, non-phosphorylated (ABL1, Homo sapiens, UniProt P00519)	98
LATS2 (Homo sapiens, UniProt Q9NRM7)	100
TNK1 (Homo sapiens, UniProt Q13470)	100
STK38 (Homo sapiens, UniProt Q15208)	99
Ribosomal protein S6 kinase alpha-4, C-terminal kinase domain (RPS6KA4, Homo sapiens, UniProt O75676)	100

Series 3
Target: Serine/threonine-protein kinase N2 (PKN2, Homo sapiens, UniProt Q16513)
UniProt Q16513, sequence (whole entry, looked up): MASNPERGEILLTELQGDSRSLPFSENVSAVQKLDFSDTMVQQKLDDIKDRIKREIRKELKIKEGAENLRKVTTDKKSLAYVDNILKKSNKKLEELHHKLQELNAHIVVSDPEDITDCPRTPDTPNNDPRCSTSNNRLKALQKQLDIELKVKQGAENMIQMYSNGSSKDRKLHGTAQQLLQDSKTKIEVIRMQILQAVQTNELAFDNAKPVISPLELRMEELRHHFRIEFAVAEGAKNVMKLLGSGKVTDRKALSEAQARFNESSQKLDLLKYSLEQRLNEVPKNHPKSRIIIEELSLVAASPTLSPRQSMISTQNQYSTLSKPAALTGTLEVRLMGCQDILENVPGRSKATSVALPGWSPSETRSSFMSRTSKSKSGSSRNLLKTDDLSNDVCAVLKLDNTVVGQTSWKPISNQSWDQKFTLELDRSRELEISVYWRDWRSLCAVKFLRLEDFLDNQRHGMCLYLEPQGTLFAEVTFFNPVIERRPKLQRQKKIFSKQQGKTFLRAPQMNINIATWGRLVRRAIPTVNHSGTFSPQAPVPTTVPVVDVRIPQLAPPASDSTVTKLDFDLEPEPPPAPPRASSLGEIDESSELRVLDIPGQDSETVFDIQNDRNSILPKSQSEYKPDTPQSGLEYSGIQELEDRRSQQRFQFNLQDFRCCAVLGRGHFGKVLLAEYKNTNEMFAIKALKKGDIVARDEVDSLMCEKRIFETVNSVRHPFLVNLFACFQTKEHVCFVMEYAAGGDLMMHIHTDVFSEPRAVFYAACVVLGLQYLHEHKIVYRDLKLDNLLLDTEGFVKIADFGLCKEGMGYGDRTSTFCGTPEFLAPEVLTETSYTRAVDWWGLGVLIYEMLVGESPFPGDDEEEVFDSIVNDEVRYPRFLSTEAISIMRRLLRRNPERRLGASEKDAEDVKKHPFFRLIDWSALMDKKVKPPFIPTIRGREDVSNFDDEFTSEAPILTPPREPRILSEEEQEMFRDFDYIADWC
Read-out: enzyme activity
Action: inhibitor
Concentration: 0.5 µM
Baseline: control
SMILES	remaining activity [%]
O=C(Nc1cccc(Nc2cc(Nc3cccc(C(F)(F)F)c3)ncn2)c1)C1CC1	95.9
Cn1c2ccccc2c2c3c(c4c5ccccc5n(CCC#N)c4c21)CNC3=O	67.7
COc1ccc(OC)c2c(=S)c3ccccc3[nH]c12	105
Cn1sc(=O)n(Cc2ccccc2)c1=O	97.2
CN(C)c1ccc(C=C2C(=O)Nc3ccccc32)cc1	98.9
Nc1ncnc2n[nH]c(Nc3ccc(F)cc3)c12	82
COc1cc2nccc(Oc3ccc(NC(=S)NC(=O)c4ccccc4C)cc3)c2cc1OC	109
O=C(O)c1ccc2c3c1cccc3c(=O)n1c3ccccc3nc21	97.9
CC(C)[C@H](CO)Nc1nc(Nc2cc(N)cc(Cl)c2)c2ncn(C(C)C)c2n1	98
OCC(O)CCON=C1C(c2c(O)[nH]c3ccccc23)=Nc2ccccc21 (stereo not shown)	90.1
COc1cc2ncnc(Nc3ccc(Oc4ccccc4)cc3)c2cc1OC	93.6
C#Cc1cccc(Nc2ncnc3cc(OCCOC)c(OCCOC)cc23)c1	101
Cc1ccc(Nc2nccc(N(C)c3ccc4c(C)n(C)nc4c3)n2)cc1S(N)(=O)=O	106
Nc1[nH]nc2nc3ccccc3nc12	98.7

Series 4
Host: human
Matrix: microsomes or S9
Concentration: 2 µM
Time: 0.5 h
Structure (SMILES)	remaining compound [%]
O=S(=O)(c1ccccc1)c1nc(-c2ccccc2)oc1NCC1CCCO1 (stereo not shown)	2.5
c1ccc2c(-c3ccc4[nH]ncc4c3)csc2c1	21.2
Cc1cc(C)c(S(=O)(=O)NCc2nc(N)n(S(=O)(=O)c3c(C)cc(C)cc3C)n2)c(C)c1	3.93
Fc1ccc(-n2ccc(CN3CCC(Nc4cccnn4)CC3)n2)c(F)c1	83.8
COc1cc(Cn2nnc(-c3ccc(C)cc3)n2)c(OC)cc1Br	> 100
O=C(O[C@@H]1Cc2c(O)cc(O)cc2O[C@@H]1c1ccc(O)c(O)c1)c1cc(O)c(O)c(O)c1	59.6
CCOc1cc2c(-c3ccccc3)c(C)oc2cc1C(=O)c1ccccc1	24.2

Excerpt of the above (series 1):
SMILES	viability
O=C(O)CCCN1CCC(O[C@@H](c2ccc(Cl)cc2)c2ccccn2)CC1	94.4%
COc1cc2ccc(=O)oc2cc1OC	35.2%
CSc1nc2cc(Cl)c(Oc3cccc(Cl)c3Cl)cc2[nH]1	12.5%
NS(=O)(=O)c1cc(C2(O)NC(=O)c3ccccc32)ccc1Cl (stereo not shown)	61%
